Assay results from different studies.
Numbered parts are unrelated; each lists some results of a single study. Changes are numbered by the printed parent chain.

Study 1
Target: Fragile X messenger ribonucleoprotein 1, C-terminal low-complexity region (Fmr1, Mus musculus, UniProt P35922)
Technique: RNA Bind-n-Seq
Molecule type: RNA
Matrix: in vitro
Tested at: 200 nM
Setting: whole 134-nt RNA, ends assumed
With: 150 mM LiCl
Baseline: input library
Direction: higher = stronger binding
All molecules: 7-deaza-guanosine replaces G
Constant ends, left off below: GGGAGUUCUACAGUCCGACGAUC … UGGAAUUCUCGGGUGUCAAGG
Sequence | log2 enrichment
GUCCUGUGCUACACAUCGUAUGUACCGAAUCGGUUUUUUGGGUUUUUUGGUUUUUUGGGAAAGUAUUAUGUUACGCCGUUCGGAUCUGCA | -1.85
GAAGGAAGUAAAAACAAAUGGAAAUGCUUCGGAUAGUGGCAGGGGUGGGGGUUGCUAAGGAAAGGGUGGGAUGGGAGUGGGUAAAGAGUU | 1.38
CCUGUGCUACACAUCGUAUGUACCGAAUCGGCCCCCCGGGGCCCCCCGGGGCCCCCCGGGGAAAGUAUUAUGUUACGCCGUUCGGAUCUG | -2.99
CCUCAAGUCCUGUGCUACACAUCGUAUGUACCGAAUCGGUGGGGUGGGGUGGAAAGUAUUAUGUUACGCCGUUCGGAUCUGCACUUCCAG | -0.859
AGUCCUGUGCUACACAUCGUAUGUACCGAAUCGGGAAAAAAAGGGAAAAAGGGUGGGAAAGUAUUAUGUUACGCCGUUCGGAUCUGCACU | -1.4
AGUCCUGUGCUACACAUCGUAUGUACCGAAUCGGAAAGGUUUUUUUGGUUUUUUUGGAAAGUAUUAUGUUACGCCGUUCGGAUCUGCACU | -3.17
UAACUUUAGAGGAGGAUCUGAUGGAUAUGGCCGUGGACGUGGAUUUGGGGAUGGCUAUAAUGGGUAUGGAGGAGGACCUGGAGGUGGCAA | -0.655
AAGUCCUGUGCUACACAUCGUAUGUACCGAAUCGGUUUUUUUGGUGGAAAAAAAGGAAAGUAUUAUGUUACGCCGUUCGGAUCUGCACUU | -2.73
UGAAGGCGCGGCCCUUCCCCGACGGCCUGGCCGAGGACAUCGAUAAAGGCGAGGUGUCCGCCCGUCAGGAGCUCAAGCAGCGGGCGCGCU | -0.672
GCAGGAAGUAAAAACAAAUGGAAAUGCUUCGGAUAGUGGCAGGGGUGGGGGUUGCUAAGGAAAGGGUGGGAUGGGAGCGGGUAAAGAGUU | 1.47
AGUCCUGUGCUACACAUCGUAUGUACCGAAUCGGGGAGGGGAAAAAGGGGUUUGGGGAAAGUAUUAUGUUACGCCGUUCGGAUCUGCACU | -1.23

Study 2
Target: Histone acetyltransferase KAT6A, winged helix 1, GST fusion (KAT6A, Homo sapiens, UniProt Q92794, residues 1-85)
Technique: protein binding microarray
Molecule type: double-stranded DNA, one strand shown
Matrix: in vitro
Tested at: not given
Setting: 8-mer, flanks averaged, mean of 2 arrays, mostly near background
Baseline: not given
Direction: higher = stronger binding
Construct (chain): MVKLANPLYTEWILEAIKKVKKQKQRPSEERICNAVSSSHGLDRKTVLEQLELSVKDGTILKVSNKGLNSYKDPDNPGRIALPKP
Sequence | E-score
AGTGGAAT | -0.136
GATACACC | 0.0527
GCCGGTGA | 0.207
AATCTCCG | 0.191
CCTTTGCA | -0.143
GGTACCCA | -0.114
GCTGGATA | -0.252
GCCACTCC | 0.053
AAACAATG | -0.12
GCAGTTGA | -0.0943
CTCAAGGC | -0.151
TGCGACCA | 0.118
GCCGTGCA | 0.298
GGATTCCA | -0.037
CGCAACGC | 0.231
AACTAGCT | 0.0198
AACTAGAT | -0.0983
GAACACTC | 0.0209

Study 3
Target: TAR DNA-binding protein 43, full length, His tag (TARDBP, Homo sapiens, UniProt Q13148, residues 1-414)
Technique: RNA Bind-n-Seq
Molecule type: RNA
Matrix: in vitro
Tested at: 20 nM
Setting: 6-mer, flanks averaged, single round
With: 150 mM LiCl
Baseline: input library
Direction: higher = stronger binding
Sequence | 6-mer enrichment (R)
CGAACC | 0.829
AGUGAC | 0.909
GGAAAU | 0.942
AUAGUA | 0.945
UUAGAC | 0.862
UCGGCA | 0.921
UCAGAA | 0.825
GAAAGU | 0.947
GCGCGG | 1.16
UCUCCU | 0.951
AGCCGU | 0.893
AGUAGC | 0.944
GAAGAG | 1.06
AACAGC | 0.823
UGCAGC | 0.963
GUCUAU | 0.949

Study 4
Target: NFE2, bZIP domain (human)
Technique: DHFR protein complementation
Matrix: yeast
Setting: single substitutions, most at no-binding floor
Baseline: wild-type JUN-FOS pair
Direction: higher = stronger binding
Starting sequence: JUN, bZIP domain (human); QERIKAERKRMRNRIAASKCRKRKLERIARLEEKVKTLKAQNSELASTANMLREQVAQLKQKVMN; partner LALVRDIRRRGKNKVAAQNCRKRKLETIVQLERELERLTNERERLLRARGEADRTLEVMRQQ
Variant | binding fitness [natural log]
R53Q | -1.48
A40Y | -1.2
E33W | -1.49
V56W | -1.52
I28L | -1.58
K36E | -1.24
L52Y | -1.51
L59W | -1.46
A40L | -1.51
L45G | -1.48
E33H | -1.5
Q58R | -0.972
Q55E | -1.49
I28C | -1.56
E44P | -1.49
E33I | -1.58
R30K | -1.28
A40C | -1.26
I28M | -1.18
R53K | -1.55
S43T | -1.3
K34H | -1.37
V35R | -1.35

Study 5
Target: CCND1, cyclin fold, Cln2 fusion (human)
Technique: yeast growth competition, sequencing
Matrix: yeast
Setting: strong parent motif
Baseline: not given
Direction: higher = stronger binding
Starting sequence: SCAPER docking peptide (human); SNARRSLNFGGST
Variant | normalised enrichment score
G11E | 1.01
R4C | 2.4
S12M | 0.404
R4V | 1.35
S6M | 2.32
N2R | 0.541
N8K | 0.893
A3S | 0.102
G10R | -0.0482
S6T | 0.865
R5I | 0.695
N2Y | 0.799
G10W | 0.611
S12D | 1.89
G10F | 0.0232
S6P | 1.11
F9L | 0.142
N2W | 1.12
N2G | 1.51
G11W | 0.289
N8Y | 0.208
T13P | 1.69
A3M | 0.871
G11Y | 0.406
R4S | -0.328

Study 6
Target: Sal-like protein 4, full length isoform B (SALL4, Homo sapiens, UniProt Q9UJQ4-2, residues 1-616)
Technique: universal PBM
Molecule type: double-stranded DNA, one strand shown
Matrix: in vitro
Tested at: not given
Setting: 8-mer, flanks averaged, mean of replicates
Direction: higher = stronger binding
Sequence | E-score
CCCGCGAC | -0.305
ACGTAATC | 0.16
CTATGCTC | -0.161
AGGCCGAG | -0.228
ACACTTAC | 0.243
AAGAGAGT | -0.132
ATGCATCA | 0.281
CGCTGGGA | -0.284
TACTAGTA | 0.212
AAACTTCC | -0.0968
ATGGACAA | 0.145
ATAGGGAA | -0.0505
AGCGGGAA | -0.079
AAACCCGG | -0.269
AGGTGGAC | -0.234
AGCACGGG | -0.2
CTTCTAGC | -0.204
GATTCAAA | 0.183
AGTCTATA | 0.248
AGCGGGGA | -0.036
GATCCATA | 0.307
CTTATAGA | 0.235
CGTACATA | 0.25
AGAGGTGG | -0.0676
AAGGGAGG | -0.188

Study 7
Target: ABI1, truncated, D143A, DHFR fusion (Arabidopsis thaliana, UniProt P49597)
Technique: DHFR PCA, dose-response
Matrix: yeast
Setting: Hill fit, not affinity
With: (+)-ABA, dose series
Direction: lower = more sensitive
Starting sequence: PYL1, truncated, DHFR fusion (Arabidopsis thaliana, UniProt Q8VZS8); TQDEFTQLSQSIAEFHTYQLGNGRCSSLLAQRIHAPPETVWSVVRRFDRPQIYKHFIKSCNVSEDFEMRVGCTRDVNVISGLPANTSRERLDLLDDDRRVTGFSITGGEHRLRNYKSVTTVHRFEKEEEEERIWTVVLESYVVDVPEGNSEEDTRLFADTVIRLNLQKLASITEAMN
Variant | ABA EC50 [µM]
D95G | 1360
T6K | 6.24
T135G | 1130
R132G | 0.993

Excerpt of the above (study 5):
Variant | normalised enrichment score
S12M | 0.404
R4V | 1.35
S6M | 2.32
N2R | 0.541
N8K | 0.893
A3S | 0.102
G10R | -0.0482
S6T | 0.865
R5I | 0.695
N2Y | 0.799
